Assay results gathered from unrelated publications.
Compare with care: the assays were run in different laboratories. “And” joins repeats or separate records; there may be more than shown. ± marks the error that the study gave.
Oprd1: Delta-type opioid receptor (Oprd1, Rattus norvegicus, UniProt P33533)
Sequence of UniProt O08914 (whole entry, looked up): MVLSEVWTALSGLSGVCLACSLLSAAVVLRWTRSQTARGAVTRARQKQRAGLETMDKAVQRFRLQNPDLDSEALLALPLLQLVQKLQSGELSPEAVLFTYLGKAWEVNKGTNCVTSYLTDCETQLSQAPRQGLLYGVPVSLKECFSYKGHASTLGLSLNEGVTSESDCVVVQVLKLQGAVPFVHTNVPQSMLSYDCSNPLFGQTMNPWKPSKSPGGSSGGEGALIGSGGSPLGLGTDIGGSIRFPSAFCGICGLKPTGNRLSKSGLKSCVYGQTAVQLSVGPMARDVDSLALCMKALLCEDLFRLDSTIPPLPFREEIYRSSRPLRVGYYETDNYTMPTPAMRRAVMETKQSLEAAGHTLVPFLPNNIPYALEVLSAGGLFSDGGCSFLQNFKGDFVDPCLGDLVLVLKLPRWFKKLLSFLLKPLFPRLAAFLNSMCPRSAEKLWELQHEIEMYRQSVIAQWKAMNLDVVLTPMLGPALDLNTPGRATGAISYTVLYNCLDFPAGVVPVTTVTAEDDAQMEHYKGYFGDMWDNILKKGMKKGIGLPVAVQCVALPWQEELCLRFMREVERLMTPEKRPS
Sequence of UniProt D0VWV4 (whole entry, looked up): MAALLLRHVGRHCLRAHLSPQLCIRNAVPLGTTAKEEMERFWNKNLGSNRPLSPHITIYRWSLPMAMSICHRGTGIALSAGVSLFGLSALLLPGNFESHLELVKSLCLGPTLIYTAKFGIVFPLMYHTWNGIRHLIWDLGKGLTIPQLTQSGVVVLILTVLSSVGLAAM
Sequence of UniProt Q007T0 (whole entry, looked up): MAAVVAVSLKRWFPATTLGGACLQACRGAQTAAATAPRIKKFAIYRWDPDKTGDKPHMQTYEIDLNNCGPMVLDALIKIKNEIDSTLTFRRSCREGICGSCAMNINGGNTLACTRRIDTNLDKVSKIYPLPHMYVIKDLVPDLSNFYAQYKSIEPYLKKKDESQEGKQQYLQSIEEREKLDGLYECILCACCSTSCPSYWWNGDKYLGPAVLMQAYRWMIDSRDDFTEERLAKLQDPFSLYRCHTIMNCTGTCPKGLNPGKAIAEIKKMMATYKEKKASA
Sequence of UniProt A5GZW8 (whole entry, looked up): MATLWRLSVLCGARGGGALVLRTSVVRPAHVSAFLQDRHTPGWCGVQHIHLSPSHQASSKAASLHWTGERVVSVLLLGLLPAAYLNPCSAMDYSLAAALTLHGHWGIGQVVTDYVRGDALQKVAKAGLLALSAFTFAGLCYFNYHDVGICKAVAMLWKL
Sequence of UniProt Q9UM07 (whole entry, looked up): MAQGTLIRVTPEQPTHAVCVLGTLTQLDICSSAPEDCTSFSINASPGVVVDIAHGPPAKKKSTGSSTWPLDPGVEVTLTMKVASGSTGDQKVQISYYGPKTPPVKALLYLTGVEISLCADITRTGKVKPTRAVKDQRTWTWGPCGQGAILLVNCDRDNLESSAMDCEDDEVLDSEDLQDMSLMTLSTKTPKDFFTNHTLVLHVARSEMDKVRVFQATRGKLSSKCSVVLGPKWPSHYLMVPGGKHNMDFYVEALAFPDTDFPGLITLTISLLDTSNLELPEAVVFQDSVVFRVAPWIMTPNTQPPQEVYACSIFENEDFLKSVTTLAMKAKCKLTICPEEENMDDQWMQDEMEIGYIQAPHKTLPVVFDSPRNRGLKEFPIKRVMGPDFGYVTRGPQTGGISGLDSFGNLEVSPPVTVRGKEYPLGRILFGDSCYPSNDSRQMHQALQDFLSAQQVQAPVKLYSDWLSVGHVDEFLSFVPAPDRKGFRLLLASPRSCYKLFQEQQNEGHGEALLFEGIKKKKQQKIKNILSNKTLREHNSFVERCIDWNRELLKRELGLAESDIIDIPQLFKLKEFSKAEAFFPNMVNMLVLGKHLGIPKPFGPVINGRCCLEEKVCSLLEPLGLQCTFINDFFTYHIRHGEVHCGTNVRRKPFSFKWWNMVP
Sequence of UniProt P10275 (whole entry, looked up): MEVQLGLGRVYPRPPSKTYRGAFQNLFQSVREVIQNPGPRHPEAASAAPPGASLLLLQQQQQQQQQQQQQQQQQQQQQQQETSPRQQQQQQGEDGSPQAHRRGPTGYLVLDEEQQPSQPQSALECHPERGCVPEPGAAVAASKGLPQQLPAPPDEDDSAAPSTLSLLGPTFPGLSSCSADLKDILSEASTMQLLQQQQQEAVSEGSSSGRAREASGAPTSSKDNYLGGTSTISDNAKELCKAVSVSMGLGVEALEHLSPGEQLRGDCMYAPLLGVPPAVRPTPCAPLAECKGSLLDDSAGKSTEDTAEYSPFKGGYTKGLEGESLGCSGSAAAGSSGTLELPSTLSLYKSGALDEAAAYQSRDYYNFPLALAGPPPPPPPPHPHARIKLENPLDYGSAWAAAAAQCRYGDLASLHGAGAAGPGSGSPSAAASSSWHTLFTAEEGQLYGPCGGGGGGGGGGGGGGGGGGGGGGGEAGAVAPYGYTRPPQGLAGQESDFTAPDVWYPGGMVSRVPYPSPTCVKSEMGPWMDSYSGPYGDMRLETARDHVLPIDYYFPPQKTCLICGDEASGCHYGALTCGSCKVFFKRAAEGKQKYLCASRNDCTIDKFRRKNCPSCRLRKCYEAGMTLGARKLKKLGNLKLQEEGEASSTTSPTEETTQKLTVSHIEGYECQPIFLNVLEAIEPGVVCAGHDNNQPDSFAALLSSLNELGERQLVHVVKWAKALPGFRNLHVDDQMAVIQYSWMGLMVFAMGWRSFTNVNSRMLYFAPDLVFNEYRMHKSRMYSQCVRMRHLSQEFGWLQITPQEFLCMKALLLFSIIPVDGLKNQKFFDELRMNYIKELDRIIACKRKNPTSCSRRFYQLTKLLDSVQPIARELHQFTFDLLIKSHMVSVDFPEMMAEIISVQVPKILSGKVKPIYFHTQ
Sequence of UniProt P33533 (whole entry, looked up): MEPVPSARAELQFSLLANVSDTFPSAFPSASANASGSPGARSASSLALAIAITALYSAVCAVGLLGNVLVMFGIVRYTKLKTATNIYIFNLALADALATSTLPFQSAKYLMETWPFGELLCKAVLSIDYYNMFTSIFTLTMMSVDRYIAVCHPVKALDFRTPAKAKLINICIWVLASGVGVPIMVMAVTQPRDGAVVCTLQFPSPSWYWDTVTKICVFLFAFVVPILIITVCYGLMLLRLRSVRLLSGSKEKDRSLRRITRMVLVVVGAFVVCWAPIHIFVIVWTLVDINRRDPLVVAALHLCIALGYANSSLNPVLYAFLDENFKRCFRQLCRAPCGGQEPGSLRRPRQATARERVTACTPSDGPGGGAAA
Sequence of UniProt P46734 (whole entry, looked up): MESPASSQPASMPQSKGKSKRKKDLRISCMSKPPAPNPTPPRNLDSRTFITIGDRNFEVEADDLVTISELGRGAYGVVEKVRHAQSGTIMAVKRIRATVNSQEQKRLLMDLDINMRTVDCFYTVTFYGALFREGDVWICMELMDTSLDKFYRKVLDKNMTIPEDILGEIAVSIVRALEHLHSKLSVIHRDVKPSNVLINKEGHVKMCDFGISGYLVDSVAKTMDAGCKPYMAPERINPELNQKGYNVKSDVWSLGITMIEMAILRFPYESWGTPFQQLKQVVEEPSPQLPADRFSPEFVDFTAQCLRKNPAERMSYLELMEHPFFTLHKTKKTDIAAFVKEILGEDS
Sequence of UniProt P35914 (whole entry, looked up): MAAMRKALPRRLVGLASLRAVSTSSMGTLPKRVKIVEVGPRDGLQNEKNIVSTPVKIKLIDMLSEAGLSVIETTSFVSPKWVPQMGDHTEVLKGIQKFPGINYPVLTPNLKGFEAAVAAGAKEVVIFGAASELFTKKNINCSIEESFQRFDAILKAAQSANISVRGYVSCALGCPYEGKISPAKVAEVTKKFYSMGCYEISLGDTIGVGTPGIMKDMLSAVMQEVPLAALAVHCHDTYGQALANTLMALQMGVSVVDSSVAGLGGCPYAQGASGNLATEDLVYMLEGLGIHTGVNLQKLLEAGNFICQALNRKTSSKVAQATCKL
Sequence of UniProt O14920 (whole entry, looked up): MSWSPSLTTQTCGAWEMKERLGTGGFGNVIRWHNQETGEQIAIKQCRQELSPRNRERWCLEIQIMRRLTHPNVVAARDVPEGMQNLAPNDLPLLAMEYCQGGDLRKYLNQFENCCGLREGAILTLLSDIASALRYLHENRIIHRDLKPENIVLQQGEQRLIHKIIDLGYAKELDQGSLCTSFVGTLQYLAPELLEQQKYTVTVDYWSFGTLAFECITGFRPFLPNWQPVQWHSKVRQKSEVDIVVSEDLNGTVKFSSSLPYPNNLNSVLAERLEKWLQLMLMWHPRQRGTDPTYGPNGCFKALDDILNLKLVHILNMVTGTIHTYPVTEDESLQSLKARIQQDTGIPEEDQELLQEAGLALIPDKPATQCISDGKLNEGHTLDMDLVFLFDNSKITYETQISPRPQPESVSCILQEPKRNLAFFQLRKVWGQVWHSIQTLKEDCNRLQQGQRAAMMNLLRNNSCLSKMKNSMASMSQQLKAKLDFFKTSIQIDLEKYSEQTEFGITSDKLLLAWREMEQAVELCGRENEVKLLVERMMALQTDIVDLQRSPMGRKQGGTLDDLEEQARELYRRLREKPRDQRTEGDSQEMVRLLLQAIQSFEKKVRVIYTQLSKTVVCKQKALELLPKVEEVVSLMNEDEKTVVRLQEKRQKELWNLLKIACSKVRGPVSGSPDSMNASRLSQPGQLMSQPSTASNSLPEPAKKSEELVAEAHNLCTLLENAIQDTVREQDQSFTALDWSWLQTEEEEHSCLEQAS
Sequence of UniProt P00761 (whole entry, looked up): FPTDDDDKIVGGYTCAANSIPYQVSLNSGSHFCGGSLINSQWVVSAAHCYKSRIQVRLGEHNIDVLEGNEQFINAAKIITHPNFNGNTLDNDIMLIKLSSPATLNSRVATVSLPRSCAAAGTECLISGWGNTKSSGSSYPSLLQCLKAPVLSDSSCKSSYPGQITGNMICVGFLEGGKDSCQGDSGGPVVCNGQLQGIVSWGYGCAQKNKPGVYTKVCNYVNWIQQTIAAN

CCOC(=O)[C@@H]1Cc2c(cc([N+](=O)[O-])cc2[N+](=O)[O-])[C@H](O)[C@]12C(=O)Nc1ccc(Br)cc12
remaining binding (KIT (Homo sapiens, UniProt P10721); binding, competition with immobilised ligand; 0.1 µM): 57%

CCCC[C@H]1CNCCN1C[C@@H]1CCCN1C[C@@H](Cc1ccc2ccccc2c1)N1CCN(CCC23CC4CC(CC(C4)C2)C3)[C@H]([C@H](C)CC)C1
remaining binding (Oprd1; radioligand binding; rat brain membranes; 500 nM, pH 7.5, 25 °C, together with: 2 nM [3H]DPDPE): 89.7%

N[C@@H](Cc1ccccc1)P(=O)(O)O
reaction rate reduction (PAL1 (Petroselinum crispum, UniProt P24481); L-Phe deamination, inhibitor, UV steady-state kinetics; 200 µM, together with: L-Phe 5 mM): 35%

O=C1NC2(CC2)COc2ncc(F)cc2[C@H]2COCCN2c2ccn3ncc1c3n2
organ-to-body weight ratio (Sprague-Dawley rat, male, kidneys; oral, 10 mg/kg/day, 4 weeks, end of treatment): 0.779 ± 0.202%

C#CCCCCOc1ccc2c(c1)CCCN2C(=O)CCl
reactivity ratio (Hydroxymethylglutaryl-CoA lyase, mitochondrial (HMGCL, Homo sapiens, UniProt P35914); mass spectrometry profiling, measured: HMGCL; H460 cell lysate; 100 µM over 10 µM, UniProt P35914; relative to: high over low concentration): 1.57

CC(C)CC(O)(CC(C)C)c1cn(C(=O)N2CCCC2)nn1
SILAC activity ratio (Faah (Mus musculus, UniProt O08914); probe labelling, inhibitor, competitive ABPP-SILAC; mouse T cells; concentration not given, 4 h, single peptide; relative to: treated over DMSO cells, lower = stronger inhibition): 1.05 and 1.19 and 1.11 and 1.1 and 1.43 and 1.13 and 1.27 and 1.37

COc1ccccc1-c1n[nH]c2nc(N[C@H]3CC[C@H](NS(=O)(=O)CC(C)C)CC3)ncc12
remaining binding (cdc2-related kinase 12 (Leishmania donovani, UniProt A0A3S7WQK2); kinobead competition pull-down; Leishmania donovani, cell extract; 2 µM; relative to: vehicle): 8.45%

CCCCC[C@@H]1OC(=O)[C@@H](C)N(C)C(=O)[C@H](CCCCC)OC(=O)[C@@H](C)N(C)C(=O)[C@H](CCCCC)OC(=O)[C@@H](C)N(C)C(=O)[C@H](CCCCC)OC(=O)[C@@H](C)N(C)C1=O
Ca2+ spark frequency (Ryr2 (Mus musculus, UniProt E9Q401); permeabilized ventricular cardiomyocytes, C57BL/6J mice; 25 µM, 15 min; relative to: vehicle): decreased

Nc1ccn([C@@H]2O[C@H](COP(=O)(O)OP(=O)(O)OP(=O)(O)O)[C@@H](O)[C@H]2O)c(=O)n1
Vmax (RNA-directed RNA polymerase L (Human respiratory syncytial virus A, UniProt P28887); UTP incorporation, substrate; position +1 downstream of cytidine): 0.71 product fraction

CC(C)[C@H]1NC(=O)C[C@H]2/C=C/CCSSC[C@@H](NC1=O)C(=O)N[C@H](Cc1cccc3ccccc13)C(=O)NCC(=O)O2
inhibition (MELK (Homo sapiens, UniProt Q14680); enzyme activity, inhibitor; 10 µM): 17.6%

O=C(O)c1ccc(-c2nc(-c3ccccc3Cl)c3sccn23)cc1
specific binding (Androgen receptor (AR, Homo sapiens, UniProt P10275); radioligand binding, safety screen panel; 10 µM; relative to: control): 112% and 128%

CN(C)[C@H]1C[C@@]23CC[C@@]4(O2)C(=CC[C@]2(C)[C@@H](c5ccc6ccncc6c5)CC[C@H]24)C=C3[C@@H](O)[C@@H]1O
inhibition (IKBKB (Homo sapiens, UniProt O14920); ATP probe labelling, inhibitor, KiNativ profiling; 1 µM): -8.1%

O=C1NC(=O)c2c1c1cc(F)c[n+]3c1c1c2c2cc(O)ccc2[n]1[Ru-4]312([N]=C=S)[S+]3CC[S+]1CC[S+]2CC3 (stereo not drawn)
remaining activity (STK11 (Homo sapiens, UniProt Q15831); enzyme activity; 100 nM, human enzyme, together with: 10 µM ATP; relative to: untreated): 106%

CS(C)(=O)=Nc1ccc(-c2ccc(-c3nc4cc(O[C@@H]5CO[C@H]6[C@@H]5OC[C@H]6O)[nH]c4cc3F)cc2)cc1
inhibition (PRKG1 (Homo sapiens, UniProt Q13976); enzyme activity, inhibitor; 10 µM): -13%

CC(C)Oc1ccc(B(O)O)c(F)n1
selectivity ratio (Trypsin (Sus scrofa, UniProt P00761); relative to: Ki trypsin over Ki AmpC): > 8330

CCc1nnc(-c2c(OC)cc(-c3cnc4cc(-c5cnn(C)c5)ccn34)cc2OC)o1
remaining binding (CHRM2 (Homo sapiens, UniProt P08172); antagonist radioligand, radioligand binding; 10 µM, SafetyScreen44 M2 mean; lower = stronger displacement): 95.1%

N[C@H](C(=O)N1CCCC1)C1CCN(c2nccc3c(-c4ncc(Cl)cc4Cl)cccc23)CC1
kcat (PADI4 (Homo sapiens, UniProt Q9UM07); enzyme activity; 0.0983 µM, high-affinity site, together with: Ca2+ 1.5 mM): 1.86 s⁻¹ and 1.78 s⁻¹

CC(=O)N[C@@H](CC(=O)O)C(=O)N[C@@H](CCC(=O)O)C(=O)N[C@H](C(=O)N[C@@H](CC(=O)O)C(=O)Nc1ccc2c(C)cc(=O)oc2c1)C(C)C
efficacy (Cholinesterase (BCHE, Homo sapiens, UniProt P06276); concentration not given, Triton): -79.7 ± 8.64%

CCCCCc1cc(O)cc(O)c1C(=O)O
Km (uncharacterized protein (Cannabis sativa, UniProt A0A803QQQ8); substrate, LC-MS product formation; 30 °C, together with: UDP-glucose 1 mM): 37.4 ± 20.2 µM

CON(C(=O)c1cn(C)nc1C(F)F)C(C)Cc1c(Cl)cc(Cl)cc1Cl (stereo not drawn)
reaction velocity (SDHD/SDHC/SDHB (Sus scrofa, UniProt A5GZW8+D0VWV4+Q007T0); enzyme activity, inhibitor, DCIP reduction; pig; 0.1 µM, together with: DCIP 40 µM): 0.0111 µM/s and 0.0118 µM/s and 0.0107 µM/s

C[C@@H](O)[C@@H]1CN([C@@H](CC2CCCCC2)CN2CCC[C@H]2CN2CCNC[C@@H]2CO)CCN1CCCC1CCCC1
remaining binding (Oprd1; radioligand binding; rat brain membranes; 500 nM, pH 7.5, 25 °C, together with: 2 nM [3H]DPDPE): 90.3%

O=C(N[C@@H]1c2ccccc2C[C@H]1N1CCCC1)c1ccc(-c2ccnc3[nH]ccc23)nc1
remaining binding (MAP2K3 (Homo sapiens, UniProt P46734); binding, competition with immobilised ligand; 3 µM): 12%

CC[C@H](C)[C@H](NC(C)=O)C(=O)N[C@@H](CCC(=O)O)C(=O)N1CCC[C@H]1C(=O)NC(CS(=O)(=O)O)P(=O)(Oc1ccccc1)Oc1ccccc1 (stereo partly drawn)
kinact/KI (Granzyme B (GZMB, Homo sapiens, UniProt P10144); enzyme activity, inhibitor, FRET): 419000 M⁻¹ s⁻¹

C[C@@]12C(=O)CC[C@H]1[C@@H]1CC=C3C[C@@H](O)CC[C@]3(C)[C@H]1C=C2c1cccnc1
remaining activity (7-alpha-hydroxycholest-4-en-3-one 12-alpha-hydroxylase (Homo sapiens, UniProt Q9UNU6, W281F); inhibitor; 80 µM, together with: 7α-hydroxycholest-4-en-3-one 0.54 µM): 52 ± 3.29%

CC(=O)N[C@@H](CCC(N)=O)C(=O)N[C@@H](CC1CCCCC1)C(=O)N[C@@H](CNC(=O)CCl)C(=O)N[C@@H](CC(C)C)C(=O)N[C@@H](Cc1ccccc1)C(=O)O
-TΔS (Beta sliding clamp (Escherichia coli, UniProt P0A988, H175G); isothermal titration calorimetry; 25 °C): 1.2 kcal/mol

CCCN(Cc1nnc(-c2ccco2)o1)C(=O)C1CCCN(C(=O)c2ccc(Cl)cc2)C1 (stereo not drawn)
IC50 ratio (PFF0160c (Plasmodium falciparum, UniProt Q08210, E182D); enzyme activity, DCIP colorimetric; relative to: E182D mutant over wild type): 2

C[C@H](NCc1ccc(-c2ccc(C(F)(F)F)cc2)cc1)C(N)=O
inhibition (CYSLTR1 (Homo sapiens, UniProt Q9Y271); radioligand binding, SafetyScreen panel; 1 µM, species human, together with: 0.30 nM [3H]LTD4): 2%

Some of these lines once more:
CC[C@H](C)[C@H](NC(C)=O)C(=O)N[C@@H](CCC(=O)O)C(=O)N1CCC[C@H]1C(=O)NC(CS(=O)(=O)O)P(=O)(Oc1ccccc1)Oc1ccccc1 (stereo partly drawn)
kinact/KI (Granzyme B (GZMB, Homo sapiens, UniProt P10144); enzyme activity, inhibitor, FRET): 419000 M⁻¹ s⁻¹

CCCCC[C@@H]1OC(=O)[C@@H](C)N(C)C(=O)[C@H](CCCCC)OC(=O)[C@@H](C)N(C)C(=O)[C@H](CCCCC)OC(=O)[C@@H](C)N(C)C(=O)[C@H](CCCCC)OC(=O)[C@@H](C)N(C)C1=O
Ca2+ spark frequency (Ryr2 (Mus musculus, UniProt E9Q401); permeabilized ventricular cardiomyocytes, C57BL/6J mice; 25 µM, 15 min; relative to: vehicle): decreased

N[C@@H](Cc1ccccc1)P(=O)(O)O
reaction rate reduction (PAL1 (Petroselinum crispum, UniProt P24481); L-Phe deamination, inhibitor, UV steady-state kinetics; 200 µM, together with: L-Phe 5 mM): 35%

CON(C(=O)c1cn(C)nc1C(F)F)C(C)Cc1c(Cl)cc(Cl)cc1Cl (stereo not drawn)
reaction velocity (SDHD/SDHC/SDHB (Sus scrofa, UniProt A5GZW8+D0VWV4+Q007T0); enzyme activity, inhibitor, DCIP reduction; pig; 0.1 µM, together with: DCIP 40 µM): 0.0111 µM/s and 0.0118 µM/s and 0.0107 µM/s
